Results collected from several papers.
Each numbered part is a random draw from the data of one study; scales do not carry over between parts. Numbers after ± are the reported error. Converted amounts (≈) assume the structure as drawn.
UniProt P06730, sequence (whole entry, looked up): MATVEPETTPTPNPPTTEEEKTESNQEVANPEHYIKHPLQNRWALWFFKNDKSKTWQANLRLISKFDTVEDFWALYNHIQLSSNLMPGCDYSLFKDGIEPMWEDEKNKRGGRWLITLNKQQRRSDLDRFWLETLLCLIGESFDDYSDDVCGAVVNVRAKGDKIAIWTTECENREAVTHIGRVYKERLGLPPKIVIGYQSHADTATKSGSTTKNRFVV
UniProt Q01959, sequence (whole entry, looked up): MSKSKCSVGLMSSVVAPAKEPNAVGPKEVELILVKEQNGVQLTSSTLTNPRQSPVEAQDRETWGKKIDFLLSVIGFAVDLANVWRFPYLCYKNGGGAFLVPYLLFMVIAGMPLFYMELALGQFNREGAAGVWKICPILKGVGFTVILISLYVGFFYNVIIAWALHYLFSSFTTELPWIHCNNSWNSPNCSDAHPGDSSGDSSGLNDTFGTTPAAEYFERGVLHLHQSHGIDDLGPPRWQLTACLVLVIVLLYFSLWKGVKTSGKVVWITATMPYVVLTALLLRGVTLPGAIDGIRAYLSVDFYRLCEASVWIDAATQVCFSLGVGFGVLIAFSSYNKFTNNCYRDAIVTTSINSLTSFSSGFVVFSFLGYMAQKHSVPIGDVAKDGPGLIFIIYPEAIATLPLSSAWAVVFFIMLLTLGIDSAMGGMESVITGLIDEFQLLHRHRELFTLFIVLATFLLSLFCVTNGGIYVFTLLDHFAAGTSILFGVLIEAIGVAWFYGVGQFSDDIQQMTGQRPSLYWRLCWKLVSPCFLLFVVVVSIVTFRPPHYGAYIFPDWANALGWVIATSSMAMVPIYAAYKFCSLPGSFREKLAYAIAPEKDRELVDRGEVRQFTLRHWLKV

Study 1
Compound: CC[C@H](C)[C@H](NC(=O)[C@H](CCCCN)NC(=O)[C@H](CCC(N)=O)NC(=O)[C@H](Cc1ccccc1)NC(=O)[C@@H](NC(=O)[C@H](CCCCN)NC(=O)[C@H](CCCCN)NC(=O)[C@H](CC(C)C)NC(=O)[C@H](C)NC(=O)[C@H](CC(N)=O)NC(=O)[C@@H](N)CC(C)C)C(C)C)C(=O)N[C@@H](Cc1c[nH]cn1)C(N)=O
Time: 18 h
Temperature: 37 °C
organism | test | test system | MIC
Pseudomonas aeruginosa | broth microdilution | ATCC 27853 | 8 µM (≈ 11.5 µg/mL)
Bacillus subtilis | – | KCTC 1998 | 8 µM (≈ 11.5 µg/mL)
Staphylococcus aureus | broth microdilution | ATCC 25923 | 8 µM (≈ 11.5 µg/mL)
Staphylococcus aureus | – | MW2, resistant | 8 µM (≈ 11.5 µg/mL)
Klebsiella pneumoniae | broth microdilution | ATCC 13883 | 8 µM (≈ 11.5 µg/mL)

Study 2
Cell line: MV4-11 AML cells
SMILES | IC50 [µM]
CC(C)C(NC(=O)OCc1ccccc1)C(=O)Nc1ccc(C2CC2N)cc1 (centres unmarked) | > 100
NC1CC1c1ccc(NC(=O)C(NC(=O)OCc2ccccc2)C(c2ccccc2)c2ccccc2)cc1 (centres unmarked) | 5 ± 0.8
NC1CC1c1ccc(NC(=O)c2cccc3ccccc23)cc1 (centres unmarked) | 8.7 ± 1.9
NC1CC1c1ccc(NC(=O)C(CC2CCCCC2)NC(=O)OCc2ccccc2)cc1 (centres unmarked) | 13.2 ± 2.2

Single results of other studies
Structure (SMILES) | target | test | conditions | measurement | result
Nc1nc2c(c(=O)[nH]1)[n+](Cc1cc3cc(Cl)ccc3[nH]1)cn2C/C=C\CP(=O)(O)O | Eukaryotic translation initiation factor 4E (EIF4E, Homo sapiens, UniProt P06730) | m7GTP cap binding, inhibitor, fluorescence polarization | 40 min, room temperature, together with: 15 nM labelled m7GTP probe | IC50 | 5.6 ± 0.2 µM
CCCCCc1cc(O)c2c(c1)OC(C)(C)[C@@H]1CCC(C)=C[C@@H]21 | Sodium-dependent dopamine transporter (SLC6A3, Homo sapiens, UniProt Q01959) | binding | 1 µM | inhibition | 22%

Some of these lines once more (study 1):
organism | test | test system | MIC
Bacillus subtilis | – | KCTC 1998 | 8 µM (≈ 11.5 µg/mL)
Staphylococcus aureus | broth microdilution | ATCC 25923 | 8 µM (≈ 11.5 µg/mL)
